Experimental data of several laboratories.
Protocols differ between the studies behind these lines. ± gives the spread as reported.
Sequence of UniProt F4KU78 (whole entry, looked up): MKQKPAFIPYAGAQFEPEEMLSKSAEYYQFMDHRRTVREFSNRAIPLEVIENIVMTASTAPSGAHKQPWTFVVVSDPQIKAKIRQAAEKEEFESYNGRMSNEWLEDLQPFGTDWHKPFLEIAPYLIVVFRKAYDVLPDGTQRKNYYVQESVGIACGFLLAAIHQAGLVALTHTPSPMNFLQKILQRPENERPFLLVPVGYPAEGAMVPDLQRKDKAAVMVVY
Sequence of UniProt P08183 (whole entry, looked up): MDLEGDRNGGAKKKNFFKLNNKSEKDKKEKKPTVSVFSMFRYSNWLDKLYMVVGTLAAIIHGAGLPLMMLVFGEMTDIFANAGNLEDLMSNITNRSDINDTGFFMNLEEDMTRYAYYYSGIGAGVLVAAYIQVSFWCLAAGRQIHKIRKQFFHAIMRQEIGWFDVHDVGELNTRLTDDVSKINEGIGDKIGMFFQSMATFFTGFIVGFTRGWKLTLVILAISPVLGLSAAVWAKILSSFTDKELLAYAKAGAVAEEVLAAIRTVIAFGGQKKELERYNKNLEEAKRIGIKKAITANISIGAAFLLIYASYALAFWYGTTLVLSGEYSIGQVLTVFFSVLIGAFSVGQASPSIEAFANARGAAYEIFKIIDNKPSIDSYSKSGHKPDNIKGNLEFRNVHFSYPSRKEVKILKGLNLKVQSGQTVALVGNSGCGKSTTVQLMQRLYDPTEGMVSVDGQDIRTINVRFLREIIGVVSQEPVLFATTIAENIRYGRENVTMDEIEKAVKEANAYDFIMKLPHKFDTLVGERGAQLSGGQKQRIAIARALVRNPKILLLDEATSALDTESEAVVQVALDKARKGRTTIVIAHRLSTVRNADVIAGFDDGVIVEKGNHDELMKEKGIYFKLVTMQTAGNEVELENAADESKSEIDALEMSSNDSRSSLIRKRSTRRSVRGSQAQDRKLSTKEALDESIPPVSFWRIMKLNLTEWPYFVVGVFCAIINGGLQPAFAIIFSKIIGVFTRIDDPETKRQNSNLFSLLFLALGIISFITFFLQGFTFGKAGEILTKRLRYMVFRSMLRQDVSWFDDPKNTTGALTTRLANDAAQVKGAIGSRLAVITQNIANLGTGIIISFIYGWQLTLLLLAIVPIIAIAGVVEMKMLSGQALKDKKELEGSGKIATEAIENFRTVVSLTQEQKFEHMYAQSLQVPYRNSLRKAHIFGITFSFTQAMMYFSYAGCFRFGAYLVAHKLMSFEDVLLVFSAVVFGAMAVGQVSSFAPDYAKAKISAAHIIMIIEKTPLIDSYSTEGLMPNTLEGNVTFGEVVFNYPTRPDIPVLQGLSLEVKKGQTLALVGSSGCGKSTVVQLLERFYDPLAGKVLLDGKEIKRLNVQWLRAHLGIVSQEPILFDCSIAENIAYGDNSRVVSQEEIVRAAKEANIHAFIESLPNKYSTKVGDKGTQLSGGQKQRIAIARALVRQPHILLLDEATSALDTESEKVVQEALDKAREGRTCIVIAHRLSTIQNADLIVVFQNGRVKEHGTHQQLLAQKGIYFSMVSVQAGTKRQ

With `CN1CCCN(C(c2ccccc2)c2ccc(Cl)cc2)CC1` (centres unmarked) the CC50 was 21.1 µM (African green monkey cells; 5 days).
`Cc1ncc2n1-c1ccc(Cl)cc1C(c1ccccc1F)=NC2` has a clearance of 363 ± 51 mL/min (wild-type mice, plasma; intravenous, 0.3 mg/kg, with: 3-day PB, BC 500 mg/kg and PCN 10 mg/kg).
`COC(=O)[C@@H]1[C@H]2CC[C@@H](C[C@@H]1O)N2C` has a stability bias of 0.02% (rat, whole blood; 1000 nM, 4 months, -80 °C, long-term storage).
`O=c1ccc2ccccc2o1`: “point of departure” 616 µM (HepaRG 3D spheroids; mitochondrial mass; 168 h, high-content imaging).
The CC50 of `Cc1cc(C)c2nc(-c3cnc(NCCCC4CCN(C)CC4)nc3C)[nH]c2c1` is reported as 22.4 µM (African green monkey cells; 5 days).
With `[Cl-].[Cl-].[Pt+2].[Ru+2].c1ccc(-c2nc3ccccc3nc2-c2ccccn2)nc1.c1cnc2c(c1)ccc1cccnc12.c1cnc2c(c1)ccc1cccnc12` the survival rate was 93.3 ± 2.1% (Danio rerio; embryos; 15 µM, 12 h).
With `CC(=O)O[C@H]1C=C[C@H]2[C@H]3Cc4ccc(O)c5c4[C@@]2(CCN3C)[C@H]1O5` the stability bias was 14.1% (rat whole blood; 500 nM, 4 h, room temperature).
The induction factor of `O=[N+]([O-])c1ccc(N2CCC(NCCC(O)c3ccc(F)c4ccccc34)CC2)c(C(F)(F)F)c1` (centres unmarked) is reported as 0.9 (Salmonella typhimurium; genotoxicity, SOS/umu test; TA1535/pSK1002; 0.008 mg/mL, 4 h, with S9, lower range).
For `CCOC1O[C@H]([C@@H](COCc2ccccc2)OCc2ccccc2)[C@H](OCc2ccccc2)[C@H]1O` (some centres unmarked), the CC50 was 17.4 µM (African green monkey cells; 5 days).
`COc1cc2c(Oc3ccc4[nH]c(C)cc4c3F)ccnc2cc1OCC1(N)CC1`: “grade 1 or 2 Hypothyroidism” 54.5% (paediatric recurrent refractory sarcoma; 12 mg).
For `CN1[C@H]2CC[C@@H]1[C@@H](C(=O)O)[C@@H](OC(=O)c1ccccc1)C2`, the stability bias was 6.71% (rat whole blood; 500 nM, 4 freeze-thaw cycles).
For `CC(C)CC(=O)OC[C@H]1O[C@@](C#N)(c2ccc3c(N)ncnn23)[C@H](O)[C@@H]1O`, “Papp A to B” read 1.46 ×10⁻⁶ cm/s (ABCB1 (Homo sapiens, UniProt P08183); Caco-2; 9 µM, with: verapamil 100 µM).
`CN1CC[C@@H](c2c(O)cc(O)c3c(=O)cc(-c4ccc(C(F)(F)F)cc4Cl)oc23)[C@@H]1CO` — result for “patients with adverse event”: 33.3% (measured: Diarrhea; B-cell malignancies; oral, 150 mg, intermittent dosing).
The CC50 of `CN(c1nc2ccccc2s1)C1CCN(CC(O)COc2ccc(F)cc2)CC1` (centres unmarked) is reported as 15.3 µM (African green monkey cells; 5 days).
`CO[C@H]1C[C@@H]2CC[C@@H](C)[C@@](O)(O2)C(=O)C(=O)N2CCCC[C@H]2C(=O)O[C@H]([C@H](C)C[C@@H]2CC[C@@H](OC(=O)NCCOCCOCCOCCOCCOCCOCCOCCOCCC(=O)N3CCc4cc(Cn5nc(-c6ccc7oc(N)nc7c6)c6c(N)ncnc65)ccc4C3)[C@H](OC)C2)C[C@@H](O)[C@H](C)/C=C(\C)[C@@H](O)[C@@H](OC)C(=O)[C@H](C)C[C@H](C)/C=C/C=C/C=C/1C`: “Pneumonia AE leading to dose reduction” 0% (patients with advanced solid tumours; intravenous, 1.6 mg/3 mg weekly, grade ≥3).
`CC[C@@H]([C@H](C)O)n1ncn(-c2ccc(N3CCN(c4ccc(OC[C@@H]5CO[C@@](Cn6cncn6)(c6ccc(F)cc6F)C5)cc4)CC3)cc2)c1=O` gave a CC50 of greater than 100 µM (African green monkey cells; 5 days).
Under “LDH serum activity”, `CCc1ccc(CC/C=C/c2ccc3c(c2)C(=O)CC3)cc1` is recorded as 406 U/L (Sprague-Dawley rat, male; oral, 450 mg/kg/day, 14 days).
For `Cc1cc(C(=O)NC(C)(C)COc2cccc3c2C(N)=NS(=O)(=O)N3)cc(C)n1`, the revertant ratio was 0.9 (Salmonella typhimurium; Ames test, confirmatory; TA100; 333 µg/plate; baseline: solvent control).
With `COC(=O)[C@H]1[C@@H](OC(=O)c2ccccc2)C[C@@H]2CC[C@H]1N2` the stability bias was 0.72% (rat, whole blood; 1000 nM, 4 h, room temperature, bench-top storage).
`COc1nc2ccc(Br)cc2cc1[C@@H](c1ccccc1)[C@@](O)(CCN(C)C)c1cccc2ccccc12` gave a CC50 of 13.7 µM (African green monkey cells; 5 days).
`O=C1c2c(O)c(=O)ccn2N([C@@H]2c3ccccc3SCc3c2ccc(F)c3F)[C@@H]2COCCN12` gave a plasma concentration of 54.7 ng/mL (BALB/c mice, plasma; oral, 50 mg/kg baloxavir marboxil, 8 h).
For `COc1cccc(-c2n[nH]c(SCc3ccccn3)n2)c1OC`, “revertant colonies per plate” read 16 (Escherichia coli; Ames test, preincubation; WP2 uvrA; 1.0 mg/plate, with rat liver S9).
With `CCC(=O)C(CC(C)N(C)C)(c1ccccc1)c1ccccc1` (centres unmarked) the CC50 was 13.2 µM (African green monkey cells; 5 days).
With `CC(=O)Oc1ccc2c3c1O[C@H]1[C@@H](OC(C)=O)C=C[C@H]4[C@@H](C2)N(C)CC[C@@]341` the stability bias was -7.82% (rat, whole blood; 1000 nM, 4 months, -80 °C, long-term storage).
With `CCCCN(CCCC)CCCOc1ccc(C(=O)c2c(CC)cc3ccccn23)cc1` the CC50 was 6.61 µM (African green monkey cells; 5 days).
`O=C(c1ccc(F)c(F)c1Nc1ccc(I)cc1F)N1CC(O)([C@@H]2CCCCN2)C1`: “treatment-related serious AE” 7% (patients aged 6 to sample A years; oral, dose not given).
`CN1CC[C@]23c4c5ccc(O)c4O[C@H]2[C@@H](O[C@@H]2O[C@H](C(=O)O)[C@@H](O)[C@H](O)[C@H]2O)C=C[C@H]3[C@H]1C5` has a stability bias of -2.58% (rat whole blood; 500 nM, 4 freeze-thaw cycles).
`C[C@]1(CO)Cc2ncn(-c3ccc(C#N)c(Cl)c3)c2C(=O)O1` has a half-life of 4.8 h (human, plasma; 2 mg single dose, geometric mean).
`Cc1cc2nc3c(=O)[nH]c(=O)nc-3n(C[C@H](O)[C@H](O)[C@H](O)COP(=O)(O)O)c2cc1C` has a midpoint potential of -210 ± 6 mV (Iodotyrosine deiodinase (Haliscomenobacter hydrossis, UniProt F4KU78); bound cofactor redox, redox titration; pH 7.4, 25 °C, anaerobic, no substrate).

Excerpt of the above:
For `CC(C)CC(=O)OC[C@H]1O[C@@](C#N)(c2ccc3c(N)ncnn23)[C@H](O)[C@@H]1O`, “Papp A to B” read 1.46 ×10⁻⁶ cm/s (ABCB1 (Homo sapiens, UniProt P08183); Caco-2; 9 µM, with: verapamil 100 µM).
For `CCOC1O[C@H]([C@@H](COCc2ccccc2)OCc2ccccc2)[C@H](OCc2ccccc2)[C@H]1O` (some centres unmarked), the CC50 was 17.4 µM (African green monkey cells; 5 days).
`COC(=O)[C@@H]1[C@H]2CC[C@@H](C[C@@H]1O)N2C` has a stability bias of 0.02% (rat, whole blood; 1000 nM, 4 months, -80 °C, long-term storage).
